{"data": "Earlier results, collected from citations in different studies", "note": "Compare with care: the assays were run in different laboratories."}
{"Compound": "CC[C@H](C)[C@H](NC(=O)CNC(=O)[C@H](CCC(N)=O)NC(=O)[C@@H](NC(=O)[C@H](C)NC(=O)[C@H](CCC(N)=O)NC(=O)[C@H](C)NC(=O)[C@@H](NC(=O)[C@H](C)NC(=O)[C@H](CCCNC(=N)N)NC(=O)[C@H](Cc1ccccc1)NC(=O)[C@H](C)NC(=O)[C@H](CC(N)=O)NC(=O)[C@H](CCCCN)NC(=O)CNC(=O)[C@H](C)NC(=O)[C@H](CCCCN)NC(=O)[C@H](CCC(=O)O)NC(=O)[C@@H](NC(=O)[C@H](CCCCN)NC(=O)[C@H](CCCCN)NC(=O)CN)[C@@H](C)CC)C(C)C)C(C)C)C(=O)NCC(=O)N[C@@H](Cc1ccccc1)C(=O)N[C@@H](C)C(=O)N[C@@H](CCCNC(=N)N)C(=O)N[C@@H](C)C(=O)N[C@@H](CC(C)C)C(=O)NCC(=O)N[C@H](C(=O)N[C@@H](C)C(=O)N[C@H](C(=O)N[C@@H](CC(=O)O)C(=O)O)C(C)C)[C@@H](C)CC", "target or system": "Pseudomonas aeruginosa", "endpoint": "MIC", "result": "4 µM"}
{"Compound": "c1ccc2cc3c(ccc4ccccc43)cc2c1", "test system": "fish", "setting": "dose not given, experimental mean", "endpoint": "bioconcentration factor", "result": "383000 L/kg"}
{"Compound": "CC[C@H](C)[C@H](NC(=O)[C@@H](NC(=O)[C@H](C)NC(=O)[C@@H](NC(=O)[C@H](C)NC(=O)[C@@H]1CCCN1C(=O)CNC(=O)[C@H](C)NC(=O)[C@H](CC(N)=O)NC(=O)[C@H](CCCCN)NC(=O)[C@@H](NC(=O)[C@H](C)NC(=O)[C@H](CC(N)=O)NC(=O)[C@H](CCCNC(=N)N)NC(=O)[C@@H](NC(=O)[C@H](CCCNC(=N)N)NC(=O)[C@H](CCCNC(=N)N)NC(=O)[C@@H](NC(=O)[C@@H](NC(=O)[C@H](CCCCN)NC(=O)[C@H](CCC(=O)O)NC(=O)[C@H](CC(C)C)NC(=O)[C@H](CCCCN)NC(=O)[C@H](CCCCN)NC(=O)[C@H](CC(C)C)NC(=O)[C@@H]1CCCN1C(=O)[C@H](CCCCN)NC(=O)[C@H](Cc1c[nH]c2ccccc12)NC(=O)[C@@H](N)CCCNC(=N)N)C(C)C)C(C)C)C(C)C)C(C)C)C(C)C)C(C)C)C(=O)NCC(=O)N[C@@H](CC(=O)O)C(=O)O", "target or system": "Pseudomonas aeruginosa", "endpoint": "MIC", "result": "16 µM"}
{"Compound": "CC(=O)OC12COC1CC(O)C1(C)C(=O)C(OC(=O)N(C)C)C3=C(C)C(OC(=O)C(O)C(C=C(C)C)NC(=O)OC(C)(C)C)CC(O)(C(OC(=O)c4cccc(OC(F)(F)F)c4)C21)C3(C)C (stereo not drawn)", "target or system": "MCF7", "test": "cytotoxicity", "endpoint": "IC50", "result": "0.00028 µM"}
{"Compound": "COc1ccc(CC(=O)Nc2cc(-c3ccccc3)nc3ncnn23)cc1", "target or system": "HepG2", "endpoint": "CC50", "result": "> 100 µM"}
{"Compound": "CN(C)c1ncnc2c1ncn2[C@@H]1O[C@H](CO)[C@@H](NC(=O)[C@H](N)CSC(c2ccccc2)c2ccccc2)[C@H]1O", "target or system": "Vero", "test": "MTT", "endpoint": "CC50", "result": "46 µM"}
{"Compound": "CC(=O)OC1C(=O)C2(C)C(O)CC3OCC3(OC(C)=O)C2C(OC(=O)c2cccc(OC(F)F)c2)C2(O)CC(OC(=O)C(O)C(C=C(C)C)NC(=O)OC(C)(C)C)C(C)=C1C2(C)C (stereo not drawn)", "target or system": "MCF7", "test": "cytotoxicity", "endpoint": "IC50", "result": "0.00034 µM"}
{"Compound": "CC[C@H](C)[C@H](NC(=O)CNC(=O)[C@H](CCCCN)NC(=O)[C@H](CCCCN)NC(=O)[C@H](CCC(N)=O)NC(=O)[C@H](CC(C)C)NC(=O)[C@H](CCCCN)NC(=O)[C@H](CC(C)C)NC(=O)[C@H](CC(C)C)NC(=O)[C@H](CCCCN)NC(=O)[C@H](CCCCN)NC(=O)[C@H](CC(C)C)NC(=O)[C@H](CC(C)C)NC(=O)[C@H](CCCCN)NC(=O)[C@H](CCSC)NC(=O)[C@H](C)NC(=O)[C@H](CCCCN)NC(=O)[C@@H]1CCCN1C(=O)[C@H](C)N)C(=O)O", "target or system": "human keratinocytes", "how to read": "up to", "endpoint": "highest non-toxic concentration", "result": "≤ 200 µM"}
{"Compound": "CCC(=C(c1ccc(O)cc1)c1ccc(O)cc1)[c-]1cccc1.[Fe+2].c1cc[cH-]c1", "target or system": "NCI60 human tumour cell panel", "test": "cell killing", "setting": "mean-graph midpoint", "endpoint": "CC50", "result": "22.9 µM"}
{"Compound": "CC(=O)OC12COC1CC(O)C1(C)C(=O)C(OC(=O)C3CC3)C3=C(C)C(OC(=O)C(O)C(C=C(C)C)NC(=O)OC(C)(C)C)CC(O)(C(OC(=O)c4cccc(OC(F)(F)F)c4)C21)C3(C)C (stereo not drawn)", "target or system": "MCF7", "test": "cytotoxicity", "endpoint": "IC50", "result": "0.00056 µM"}
{"Compound": "Cc1ccc(Cn2cc(C(=O)NCCOCCO)c(=O)c3cc(C(=O)/C=C/c4ccc([N+](=O)[O-])o4)ccc32)cc1", "target or system": "Vero", "endpoint": "CC50", "result": "3.4 µM"}
{"Compound": "Cc1ccc(CCNc2cc(-c3ccccc3)nc3ncnn23)cc1", "target or system": "HepG2", "endpoint": "CC50", "result": "53 µM"}
{"note": "For quick reference, copied from above:"}
{"Compound": "CC(=O)OC12COC1CC(O)C1(C)C(=O)C(OC(=O)C3CC3)C3=C(C)C(OC(=O)C(O)C(C=C(C)C)NC(=O)OC(C)(C)C)CC(O)(C(OC(=O)c4cccc(OC(F)(F)F)c4)C21)C3(C)C (stereo not drawn)", "target or system": "MCF7", "test": "cytotoxicity", "endpoint": "IC50", "result": "0.00056 µM"}
{"Compound": "COc1ccc(CC(=O)Nc2cc(-c3ccccc3)nc3ncnn23)cc1", "target or system": "HepG2", "endpoint": "CC50", "result": "> 100 µM"}
